Published values gathered from unrelated publications.
A part holds a random share of what one study measured.

Series 1 — method: protein binding microarray; form: double-stranded DNA, one strand shown; sample: in vitro; tested at: not given; baseline: not given; reading: higher = stronger binding; measurement: E-score
Target: Histone acetyltransferase KAT6A, winged helix 2, GST fusion (KAT6A, Homo sapiens, UniProt Q92794, residues 85-181)
Setting: 8-mer, flanks averaged, mean of 2 arrays, mostly near background
Residues (chain): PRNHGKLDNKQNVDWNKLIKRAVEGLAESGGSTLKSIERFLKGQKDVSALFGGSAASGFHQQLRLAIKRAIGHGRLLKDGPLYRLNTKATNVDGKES
TCAAGGAA: -0.0381
TGGAGTAA: 0.0456
ATGTTTTA: -0.0496
AACCTTAC: -0.0338

Series 2 — method: aptamer microarray, sandwich; form: DNA with 2'F-ANA; sample: in vitro; tested at: 200 nM; with: Cy3 exosite-II aptamer, 400 nM; reading: higher = stronger binding; measurement: mean fluorescence intensity
Target: Prothrombin, mature alpha-thrombin (F2, Homo sapiens, UniProt P00734)
Setting: whole 15-mer aptamer, many near background
GGTTGGTGTGGTTGG (2'F-ANA at 1 3 4 5 6 7 12 13): 74.1 a.u.
GGTTGGTGTGGTTGG (2'F-ANA at 1 5 8 9 12 14): 46.1 a.u.
GGTTGGTGTGGTTGG (2'F-ANA at 2 5 10 13): 41.5 a.u.
GGTTGGTGTGGTTGG (2'F-ANA at 1 2 3 4 6 7 15): 201 a.u.

Series 3 — method: universal PBM; form: double-stranded DNA, one strand shown; sample: in vitro; tested at: 600 nM; reading: higher = stronger binding; measurement: E-score
Target: Sal-like protein 4, full length isoform A (SALL4, Homo sapiens, UniProt Q9UJQ4, residues 1-1053)
Sequence of UniProt Q9UJQ4 (whole entry, looked up): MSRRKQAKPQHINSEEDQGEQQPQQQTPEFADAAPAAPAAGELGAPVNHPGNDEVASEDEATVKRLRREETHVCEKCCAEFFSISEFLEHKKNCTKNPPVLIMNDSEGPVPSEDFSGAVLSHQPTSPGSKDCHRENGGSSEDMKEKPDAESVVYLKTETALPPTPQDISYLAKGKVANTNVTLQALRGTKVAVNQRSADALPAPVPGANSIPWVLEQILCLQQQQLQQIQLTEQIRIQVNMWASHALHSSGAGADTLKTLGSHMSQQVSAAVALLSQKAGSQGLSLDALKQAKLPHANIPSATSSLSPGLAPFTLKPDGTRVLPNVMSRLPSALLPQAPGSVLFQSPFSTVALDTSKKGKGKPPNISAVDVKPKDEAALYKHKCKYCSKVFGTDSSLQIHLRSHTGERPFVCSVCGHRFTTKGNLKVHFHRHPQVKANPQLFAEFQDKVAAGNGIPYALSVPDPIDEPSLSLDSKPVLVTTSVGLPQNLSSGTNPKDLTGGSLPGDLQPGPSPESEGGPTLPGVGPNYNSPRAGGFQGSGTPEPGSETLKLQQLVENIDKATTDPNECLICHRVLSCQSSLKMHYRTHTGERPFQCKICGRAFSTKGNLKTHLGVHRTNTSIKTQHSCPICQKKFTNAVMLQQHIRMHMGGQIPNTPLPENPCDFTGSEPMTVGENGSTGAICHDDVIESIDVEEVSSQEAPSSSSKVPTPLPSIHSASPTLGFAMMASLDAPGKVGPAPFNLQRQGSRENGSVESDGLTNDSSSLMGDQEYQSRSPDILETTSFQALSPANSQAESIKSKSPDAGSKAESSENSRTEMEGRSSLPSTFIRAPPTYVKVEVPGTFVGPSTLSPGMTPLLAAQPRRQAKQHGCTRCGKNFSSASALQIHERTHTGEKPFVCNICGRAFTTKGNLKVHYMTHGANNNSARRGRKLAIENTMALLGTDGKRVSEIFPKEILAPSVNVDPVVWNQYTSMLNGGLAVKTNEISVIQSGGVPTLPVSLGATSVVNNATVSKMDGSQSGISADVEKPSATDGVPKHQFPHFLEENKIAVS
Setting: 8-mer, flanks averaged, mean of replicates
AGCGTTTC: -0.00692
CAAAGTAC: 0.021
GGTAAGAA: -0.113

Mixed results
PhoQ, residues 284 288 289 292 302 303 SNGLAW  fold induction (PhoP, residues 12 14 15 18 19 GQALL (Escherichia coli, UniProt P23836); Sort-seq, measured: YFP reporter; E. coli; PhoQ-PhoP variant library, with: 10 µM Mg2+; baseline: high Mg2+ state, higher = stronger signaling): 9.04

Excerpt of the above (series 1):
TGGAGTAA: 0.0456
